Measurements pooled from the literature.
Parts stem from different laboratories: compare values within a part only. Changes are numbered by the printed parent chain.

Study 1
Target: RNA binding protein fox-1 homolog 2, RRM domain, GST-SBP tag (RBFOX2, Homo sapiens, UniProt O43251-10, residues 100-194)
Method: RNA Bind-n-Seq
Molecule type: RNA
Sample: in vitro
Tested at: 365 nM
Notes: natural RNA segment, single round, ends assumed
Reference: no-protein control
Direction: higher = stronger binding
Measurement: RBNS enrichment (R)
Target sequence (chain): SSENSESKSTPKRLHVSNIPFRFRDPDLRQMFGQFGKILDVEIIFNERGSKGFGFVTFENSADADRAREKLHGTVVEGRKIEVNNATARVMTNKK
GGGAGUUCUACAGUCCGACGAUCCUAGGGGGAUGUGUUUAUAUAUACAUUUGCAUAUACCCACGGGGGAUUAUGAGCUAAUUUUUUUUAUAGGACACAGAAUUCUAUUCAAUGCUGUUAAAUAUGCAAAUAGUUGGAAUUCUCGGGUGCCAA: 0.479
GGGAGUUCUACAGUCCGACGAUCGUUAACAUGGGACCUUCUGUUUAGCUUCCUCUUGCUUCCCAAAGAUUUUAAGCAUUUUGUAAAUGUAUAAACUCACCUCUGGUAACAGUGGCCCAGACGCUGCUUUGUGCUGGAAUUCUCGGGUGCCAA: 0.328
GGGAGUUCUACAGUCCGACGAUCAGGACACCAGUCUUCAAGGAAAGGGACUUUUUUCCAGUCUGCCAAUCAUAUUGGGAAAGUGCUAGCUGUGCUCACCUUCAUGGGGCUGUUUCCAGCUCGUCCACAAGCUCUGGAAUUCUCGGGUGCCAA: 0.429
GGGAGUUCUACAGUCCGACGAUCUGGGAGGAGCCCCUGGACAUGCCUGUCCUGAAAGCGGCUGCCUCCAUUAUCCAUUCCCAAGAUGCCUGAUCAGAAACCAACCAUGAAUGAACCCCUGGCUCCUUCACCACUGGAAUUCUCGGGUGCCAA: 0.433
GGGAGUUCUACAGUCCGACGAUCCUGUGACUCCAUGUACUCAUCCCAAGGUUGUAUCUGGAGCCUGUGGGCUGGCUAGAUGAUAUAGGUGACUGGCACCUAUUAAGAGUAUAUAACAUAAAUACCAUAAAAAGUGGAAUUCUCGGGUGCCAA: 0.598
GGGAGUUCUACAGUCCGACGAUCCUUAAAACAGAAUUAUUUCUAUACACACACCUGAAUACUUUGACAAUGAGAUUUAACUUGUUGAAUGUGUUCUGUGAGAUGGGGUGUACCACGACUAUGGUGGGAAAAACUGGAAUUCUCGGGUGCCAA: 0.318
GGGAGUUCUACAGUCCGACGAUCCCGACAUACAUCACAAAGGCUGCUUCAUGGCUGGGUGUGGGACCAGAUGCCAGCAAGGAUGGAAGCAUCAGGCUCACAGGUGUGUGUGUGUGUGUGCACGCGUUCGCACAUGGAAUUCUCGGGUGCCAA: 4.72
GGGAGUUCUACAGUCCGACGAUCCAGAGUCUUCCUGGCCUUUUUCCCUCCACCUUUUUGUAGUUACUCGGGGGCUUACUUGUGCAGUACUAAAAUCAAAGGAGCUGGUUCUUCUUUUCUCCCAAUCUUUUCUUUGGAAUUCUCGGGUGCCAA: 0.53
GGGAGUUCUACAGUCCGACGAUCCCACUAUCAAAGUUCCAGCUACCUGCAAGGUGAAGGAAGGCAUCCCUUUUGGGGCAUGCACUUUCUUUCCUUUCUCAAAAUAAUGUUAUAUGUGGCCACACUGAUGUUCAUGGAAUUCUCGGGUGCCAA: 0.391
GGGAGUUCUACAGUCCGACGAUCCAGAGGCCUGAGGUUUCUAAAAGAAGGUAGAUUUCUACAGAGCUGAGUGUUGGUUCCUUUUUCUUAUUGGUUGAAAAUUACCUGGUAGUGAUCAGAAAACUUAGAUGCUAUGGAAUUCUCGGGUGCCAA: 0.767
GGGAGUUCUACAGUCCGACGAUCGCACCUAUCUGAGCUCUACUCAGUCAUGAGAGGAGGACCAUGCUGCUGUCACUUCGUUGGUCCCUUGAAGAUCUCUGUGACCGGAUCUGCCUCCGUGGCUGGGAGACAUUUGGAAUUCUCGGGUGCCAA: 0.385
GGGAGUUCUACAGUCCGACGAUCAGCCAUGCAUCUCUGUGGGAAGAUAGAAGAAUCUCAUGCUCUGCAGUUACAUAGGUAGCAAGGGUUUAUUUUUACUUGGGCAAAUUUCAGUGAUAGGCAUUGAGAUCAUGUGGAAUUCUCGGGUGCCAA: 3.21

Study 2
Target: Interferon regulatory factor 7, full length, phosphomimetic (IRF7, Homo sapiens, UniProt Q92985, residues 1-503, S471D/S472D/S475D/S476D/S477D/S483D/S484D/S487D)
Method: protein-binding microarray
Molecule type: double-stranded DNA, one strand shown
Sample: in vitro
Tested at: 2200 nM top
Notes: 60-bp whole probe
With: salmon DNA 0.4 mg/ml
Reference: random background probes
Direction: higher = stronger binding
Measurement: fitted relative affinity
All sequences stand within: GCCTAGCAC … GTCTTGATTCGCTTGACGCTGCTG
Residues (chain): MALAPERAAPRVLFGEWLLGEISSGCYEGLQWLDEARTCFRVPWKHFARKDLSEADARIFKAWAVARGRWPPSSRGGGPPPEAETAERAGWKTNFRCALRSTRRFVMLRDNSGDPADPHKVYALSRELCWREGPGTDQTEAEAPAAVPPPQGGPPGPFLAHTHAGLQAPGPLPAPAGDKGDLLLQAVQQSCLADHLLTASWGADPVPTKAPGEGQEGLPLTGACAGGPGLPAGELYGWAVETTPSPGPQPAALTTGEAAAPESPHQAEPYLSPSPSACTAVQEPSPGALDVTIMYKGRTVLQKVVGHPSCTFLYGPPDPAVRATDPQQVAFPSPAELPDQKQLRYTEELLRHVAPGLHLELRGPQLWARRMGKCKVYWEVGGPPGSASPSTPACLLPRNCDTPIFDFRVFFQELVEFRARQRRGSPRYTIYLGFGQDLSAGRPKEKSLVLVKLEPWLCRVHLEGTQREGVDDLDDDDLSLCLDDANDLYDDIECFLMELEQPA
GACGGTTCCCTGTTCCTGACGTGCTAG: 2.05 z-score
GACGGTTCCCTTATCCTGACGTGCTAG: 1.75 z-score
GACGGTACCCTTTTCCTGACGTGCTAG: 1.45 z-score
GAAGGTATCGGACTGGGGACGTGCTAG: -0.409 z-score
TCATTTCTTTAACTCATACTGTGCTAG: 1.63 z-score
AGCTGTTTCTGTGTCACAGAGTGCTAG: 1.1 z-score
TCAGCTCCCTTTCTCTCTGTGTGCTAG: 2.15 z-score
AGTGTTATAATATTATTGCAGTGCTAG: 0.216 z-score
TTAGGACTGCTTTCCCTTTAGTGCTAG: 3.49 z-score
CACGGTTTCGGACTGGGGACGTGCTAG: 3.74 z-score
GACGGACTGCTTCTCCGGACGTGCTAG: 0.243 z-score
GACGGAGTGGGTTTCGGGACGTGCTAG: 1.18 z-score
GACGACTTCAGTCTCGAGACGTGCTAG: 0.0337 z-score
TCAATTACCTCATCTTTCACTGTGCTA: 1.46 z-score
GTAGATATCAGTATCGATTAGTGCTAG: 0.306 z-score
TTAGATTTCAGCCTCGATTAGTGCTAG: 0.255 z-score

Study 3
Target: Histone acetyltransferase KAT6A, both winged helices, GST fusion (KAT6A, Homo sapiens, UniProt Q92794, residues 1-181)
Method: protein binding microarray
Molecule type: double-stranded DNA, one strand shown
Sample: in vitro
Tested at: not given
Notes: 8-mer, flanks averaged, mean of 2 arrays, mostly near background
Reference: not given
Direction: higher = stronger binding
Measurement: E-score
Construct (chain): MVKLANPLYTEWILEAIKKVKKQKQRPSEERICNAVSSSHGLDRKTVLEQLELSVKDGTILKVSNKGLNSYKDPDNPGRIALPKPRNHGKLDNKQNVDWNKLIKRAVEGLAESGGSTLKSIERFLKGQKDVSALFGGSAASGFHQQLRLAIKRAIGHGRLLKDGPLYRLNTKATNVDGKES
CCTTACCA: -0.14
CTGAGGGC: -0.112
ACCTGCAG: -0.145
ACGGTTTC: 0.112
CTGGTTCA: -0.0679
AAACTATT: -0.0549
AGGGCGTA: 0.135
CTTCGCTC: 0.0885
AAACGCGT: 0.306
CGGGGGCC: 0.151
ACATGCTG: -0.136
ATATAGTG: 0.022
GGTTTTAA: 0.0109
ATGTGAAC: -0.00762
GGTGGCCA: -0.204
GGATAGCC: -0.00194
CGCAGGAC: 0.104
CGTGCCAA: -0.0913
ATTGGCCA: -0.106
ACTCGAGA: -0.0424
GCAGGAGC: 0.0565
ATTTAGCG: 0.114
CCCGACCC: 0.0409
AGGAGTGG: -0.194
ACAGAAGT: -0.067

Study 4
Target: ABI1, truncated, D143A, DHFR fusion (Arabidopsis thaliana)
Method: DHFR PCA, deep sequencing
Sample: yeast
Notes: methotrexate growth selection, single substitutions
With: (+)-ABA 0.0091 µM
Reference: wild-type fitted maximum
Direction: higher = stronger binding
Measurement: relative binding score
Starting sequence: PYL1, truncated, DHFR fusion (Arabidopsis thaliana); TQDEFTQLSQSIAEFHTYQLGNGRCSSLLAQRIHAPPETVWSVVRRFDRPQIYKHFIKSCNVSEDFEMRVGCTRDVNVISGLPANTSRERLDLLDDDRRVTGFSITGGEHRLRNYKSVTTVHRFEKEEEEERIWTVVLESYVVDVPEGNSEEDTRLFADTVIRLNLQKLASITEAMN
R111M: 11%
E147M: 8.7%
T86W: 75.4%
F66R: 3.55%
E125S: 47.7%
R99I: 0.925%
L28F: 2.07%
S59R: 2.74%
S26Y: 5.16%
V100N: -13.5%
D159N: 14.8%
V43S: 0.262%
T101A: 0.742%
T154V: 42.6%
V161I: 57.3%
H34F: 25.9%
D159Y: 5.37%

Study 5
Target: RING finger protein unkempt homolog, zinc fingers 1-6, GST-SBP tag (UNK, Homo sapiens, UniProt Q9C0B0, residues 30-357)
Chain of UniProt Q9C0B0 (30-357, looked up): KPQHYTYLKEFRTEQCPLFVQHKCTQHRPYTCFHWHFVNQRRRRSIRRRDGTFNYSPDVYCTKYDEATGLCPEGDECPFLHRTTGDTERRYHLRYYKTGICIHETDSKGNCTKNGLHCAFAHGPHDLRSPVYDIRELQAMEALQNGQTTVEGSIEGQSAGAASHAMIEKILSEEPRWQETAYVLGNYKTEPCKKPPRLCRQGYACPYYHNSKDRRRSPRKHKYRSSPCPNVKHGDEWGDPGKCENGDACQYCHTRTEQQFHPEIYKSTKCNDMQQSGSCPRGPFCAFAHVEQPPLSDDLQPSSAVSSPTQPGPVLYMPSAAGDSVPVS
Method: RNA Bind-n-Seq
Molecule type: RNA
Sample: in vitro
Tested at: not given
Notes: RNA with constant flanks, human and mouse sites, ends assumed
Reference: input RNA pool
Direction: higher = stronger binding
Measurement: bound/input enrichment
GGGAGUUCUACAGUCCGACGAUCAGUAGCACUUUUGUUGUACAUUGUGUUCCAAUAAGUAUAGUAUGGAACACUUUCUCAUUUUUAGUUCCCAUAAUAUGCCAGUUUUUGCUUUCCUAGUGUUCUGUGAGUAUUAGGAUUUGGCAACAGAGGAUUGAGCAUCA: 16.5 ratio
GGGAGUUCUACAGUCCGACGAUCCCAUAAGUACAGUUGAUCAAAGUCAUAGUAGGUAAAUGCUUUAUGGGACAGCUGACACCUUUUAGACCCUACCAGGUAUUGCUAGCAUGUGAGCUGCAGUUGUGGGGUCUGAGAUAUUUCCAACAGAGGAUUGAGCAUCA: 0.174 ratio
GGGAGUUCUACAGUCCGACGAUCCCUAACACCGAUGACCUGUUCAAAGCUGUUGGUGAUGGAAUUGUGCUUUGUAAAAUGAUUAACCUUUCAGUUCCUGAUACCAUUGAUGAAAGAGCAAUCAACAAGAAGAAACUUACACCCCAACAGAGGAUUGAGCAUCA: 0.113 ratio
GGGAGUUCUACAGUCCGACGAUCGAGGACACGUGGUCCGGGUGCAUAAUGGGAGACACUGGCUAUUAUCUUCCUAAAAAGUUCACCCAGUGUAAUAUUGAAGAGUAUCAUGACUUCCUGAAUAGUGGAGGUGGUGCCUGCCUUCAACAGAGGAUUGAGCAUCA: 0.422 ratio
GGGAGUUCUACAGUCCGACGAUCAAAAUUGGUAUCGUUGGAUUGCCAAAUGUUGGGAAGUCUACCUUCUUCAAUGUAUUAACCAAUAGUCAGGCUUCAGCAGAAAACUUCCCAUUCUGCACUAUUGAUCCUAAUGAGAGCAGACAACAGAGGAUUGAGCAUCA: 0.217 ratio
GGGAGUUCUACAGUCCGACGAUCUUAUUUAAACGCUGAAGCUUUUUGUUGUUGAUGAAAGAGUUCUUUGCACAAUUGUCCCAUUGUUUGACACCCAGUGUACUUGUCAUUUGCAUAAGACAGCAUUCUGACCACACUUGUAUGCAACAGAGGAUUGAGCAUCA: 0.175 ratio
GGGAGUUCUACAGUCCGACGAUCCUCCGUUAUGUGCCGCUCUGGAAGGUCCAUAUUUUCACAGUCAUUCAGCUUACUUGUUUGGUCCUUUUAUGGGUGAUAAAAGUUUCAGCUGCUGCAGUGGUUUUUCCCAUGAUGGUUCUUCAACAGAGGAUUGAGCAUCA: 0.189 ratio
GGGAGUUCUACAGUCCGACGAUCGGUGCCUUUGCUUUGCCCAUCCUGAAUGCCCUGCUGGAGACGCCCCAGCGACUGUUCGCCCUGGUCCUCACCCCUACUCGAGAGUUGGCCUUUCAGAUCUCUGAGCAGUUCGAGGCCCUGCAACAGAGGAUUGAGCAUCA: 0.1 ratio
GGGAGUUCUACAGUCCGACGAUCAAGCAGCAAACAGAAAGGGUUACAAAAGAGAUGAAUGAAUUUAUUCACAGAGAGCAAAAUAGUUUAUCACUUCUAGAAGCAAGUGAAGCCGACCGUGAUGCGGUCAAUGACAAGAAAAGACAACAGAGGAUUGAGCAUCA: 0.854 ratio
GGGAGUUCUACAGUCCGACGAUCCCAGGUCCAGGGCCAGCCGCCAUGACGAACGUGUACUCCUUGGAUGGGAUUCUGGUGUUUGGUUUGCUCUUUGUUUGCACCUGUGCCUACUUCAAGAAAGUACCUCGUCUCAAAACCUGGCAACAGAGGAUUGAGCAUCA: 0.104 ratio
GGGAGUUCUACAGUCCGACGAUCAAAAAAUGCUUAAAUUGUCAAACUGUCAUUACUUCUUAUUAUAGUUGAAGGCAUUCUCCAGAUUCUUUUUAAAAGAUUUGUUCAUAUUUCUCUCUCUCUCUCUCUCUCUCUCUCUCUCUUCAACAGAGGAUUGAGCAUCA: 1.02 ratio

A few entries again (study 4):
R99I: 0.925%
L28F: 2.07%
S59R: 2.74%
S26Y: 5.16%
V100N: -13.5%
D159N: 14.8%
